Measurements gathered from unrelated publications.
A part holds a random share of what one study measured. Several values in a cell are separate wells, animals, samples, runs or records.
Chain of UniProt Q9H4B4 (whole entry, looked up): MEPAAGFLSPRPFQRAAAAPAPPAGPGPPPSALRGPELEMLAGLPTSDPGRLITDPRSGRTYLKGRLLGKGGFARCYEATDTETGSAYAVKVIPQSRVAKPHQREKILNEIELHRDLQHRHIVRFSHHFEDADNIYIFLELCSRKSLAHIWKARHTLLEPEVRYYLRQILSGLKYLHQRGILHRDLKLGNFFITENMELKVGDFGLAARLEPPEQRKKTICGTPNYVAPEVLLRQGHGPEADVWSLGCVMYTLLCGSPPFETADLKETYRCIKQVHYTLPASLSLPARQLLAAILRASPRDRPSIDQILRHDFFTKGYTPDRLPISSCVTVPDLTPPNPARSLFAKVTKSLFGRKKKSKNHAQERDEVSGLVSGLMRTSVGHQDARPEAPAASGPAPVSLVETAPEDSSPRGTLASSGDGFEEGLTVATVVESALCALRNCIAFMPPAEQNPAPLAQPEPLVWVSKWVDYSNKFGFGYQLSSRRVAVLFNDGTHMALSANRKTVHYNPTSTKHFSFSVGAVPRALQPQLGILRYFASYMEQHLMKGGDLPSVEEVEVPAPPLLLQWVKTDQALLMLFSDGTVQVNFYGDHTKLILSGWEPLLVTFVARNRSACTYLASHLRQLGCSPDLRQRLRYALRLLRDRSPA
Chain of UniProt P49840 (whole entry, looked up): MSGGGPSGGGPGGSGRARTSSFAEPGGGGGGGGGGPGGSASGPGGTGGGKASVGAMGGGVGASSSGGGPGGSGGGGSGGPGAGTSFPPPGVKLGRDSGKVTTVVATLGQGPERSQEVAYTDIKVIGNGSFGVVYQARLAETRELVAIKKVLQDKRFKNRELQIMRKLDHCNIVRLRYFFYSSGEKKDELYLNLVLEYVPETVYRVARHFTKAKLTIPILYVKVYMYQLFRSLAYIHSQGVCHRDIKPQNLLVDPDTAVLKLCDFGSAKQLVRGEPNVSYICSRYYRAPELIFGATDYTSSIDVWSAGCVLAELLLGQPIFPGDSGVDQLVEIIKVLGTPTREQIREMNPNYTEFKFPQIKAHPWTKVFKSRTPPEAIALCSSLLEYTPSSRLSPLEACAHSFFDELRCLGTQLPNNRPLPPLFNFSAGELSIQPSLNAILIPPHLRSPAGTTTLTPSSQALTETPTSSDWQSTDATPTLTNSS
Chain of UniProt Q13523 (whole entry, looked up): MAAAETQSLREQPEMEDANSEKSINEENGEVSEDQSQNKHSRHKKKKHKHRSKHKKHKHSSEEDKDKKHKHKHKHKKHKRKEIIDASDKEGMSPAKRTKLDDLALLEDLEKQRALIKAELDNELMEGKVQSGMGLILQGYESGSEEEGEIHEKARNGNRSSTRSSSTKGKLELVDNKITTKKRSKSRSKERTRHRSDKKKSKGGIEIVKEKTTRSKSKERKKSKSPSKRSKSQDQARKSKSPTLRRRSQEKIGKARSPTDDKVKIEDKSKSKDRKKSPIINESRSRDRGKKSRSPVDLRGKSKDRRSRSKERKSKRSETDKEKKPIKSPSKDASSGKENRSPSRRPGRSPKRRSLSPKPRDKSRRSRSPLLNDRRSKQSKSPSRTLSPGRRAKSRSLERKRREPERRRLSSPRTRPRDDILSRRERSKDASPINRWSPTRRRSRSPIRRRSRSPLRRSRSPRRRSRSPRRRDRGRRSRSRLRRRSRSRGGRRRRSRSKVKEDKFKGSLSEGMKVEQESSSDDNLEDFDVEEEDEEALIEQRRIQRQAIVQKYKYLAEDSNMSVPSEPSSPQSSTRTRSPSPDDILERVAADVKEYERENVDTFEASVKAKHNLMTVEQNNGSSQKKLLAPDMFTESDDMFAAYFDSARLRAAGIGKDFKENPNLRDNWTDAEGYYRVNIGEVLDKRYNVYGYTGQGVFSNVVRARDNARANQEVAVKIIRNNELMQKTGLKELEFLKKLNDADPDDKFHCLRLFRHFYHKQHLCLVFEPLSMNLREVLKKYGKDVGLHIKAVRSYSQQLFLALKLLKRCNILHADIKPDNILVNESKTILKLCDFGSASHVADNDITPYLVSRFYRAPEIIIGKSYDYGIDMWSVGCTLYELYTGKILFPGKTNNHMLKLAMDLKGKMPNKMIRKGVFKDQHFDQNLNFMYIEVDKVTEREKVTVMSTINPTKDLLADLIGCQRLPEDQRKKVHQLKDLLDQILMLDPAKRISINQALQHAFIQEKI
Chain of UniProt Q02763 (whole entry, looked up): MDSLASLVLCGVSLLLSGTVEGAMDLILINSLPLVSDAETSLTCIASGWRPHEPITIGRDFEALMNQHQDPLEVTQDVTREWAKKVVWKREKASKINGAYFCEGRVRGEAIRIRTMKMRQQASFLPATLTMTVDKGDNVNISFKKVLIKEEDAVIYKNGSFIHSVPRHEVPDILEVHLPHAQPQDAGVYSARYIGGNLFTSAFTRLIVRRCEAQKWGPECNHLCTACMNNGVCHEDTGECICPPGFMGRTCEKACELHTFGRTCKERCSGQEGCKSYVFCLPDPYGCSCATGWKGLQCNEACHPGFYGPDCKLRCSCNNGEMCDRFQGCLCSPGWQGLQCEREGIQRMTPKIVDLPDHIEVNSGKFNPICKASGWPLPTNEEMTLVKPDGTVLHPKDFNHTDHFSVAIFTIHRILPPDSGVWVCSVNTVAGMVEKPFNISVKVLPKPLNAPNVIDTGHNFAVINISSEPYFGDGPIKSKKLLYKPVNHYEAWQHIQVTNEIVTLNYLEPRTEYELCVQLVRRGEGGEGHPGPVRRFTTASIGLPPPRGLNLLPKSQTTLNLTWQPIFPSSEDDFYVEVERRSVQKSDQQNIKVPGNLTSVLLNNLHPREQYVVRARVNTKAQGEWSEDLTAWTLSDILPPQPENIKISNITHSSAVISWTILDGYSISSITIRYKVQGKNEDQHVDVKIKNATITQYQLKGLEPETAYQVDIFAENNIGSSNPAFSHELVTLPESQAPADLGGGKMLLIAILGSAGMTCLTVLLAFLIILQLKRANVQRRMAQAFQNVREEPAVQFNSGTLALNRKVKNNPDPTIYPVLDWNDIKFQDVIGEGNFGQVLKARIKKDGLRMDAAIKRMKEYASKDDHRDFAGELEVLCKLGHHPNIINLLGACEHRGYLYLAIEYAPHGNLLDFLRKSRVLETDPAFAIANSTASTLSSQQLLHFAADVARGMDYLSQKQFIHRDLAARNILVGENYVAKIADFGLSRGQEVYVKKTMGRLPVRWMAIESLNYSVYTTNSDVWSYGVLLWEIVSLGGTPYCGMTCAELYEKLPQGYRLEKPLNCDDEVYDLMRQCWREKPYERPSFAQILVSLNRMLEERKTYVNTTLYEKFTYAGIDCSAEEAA
Chain of UniProt P78368 (whole entry, looked up): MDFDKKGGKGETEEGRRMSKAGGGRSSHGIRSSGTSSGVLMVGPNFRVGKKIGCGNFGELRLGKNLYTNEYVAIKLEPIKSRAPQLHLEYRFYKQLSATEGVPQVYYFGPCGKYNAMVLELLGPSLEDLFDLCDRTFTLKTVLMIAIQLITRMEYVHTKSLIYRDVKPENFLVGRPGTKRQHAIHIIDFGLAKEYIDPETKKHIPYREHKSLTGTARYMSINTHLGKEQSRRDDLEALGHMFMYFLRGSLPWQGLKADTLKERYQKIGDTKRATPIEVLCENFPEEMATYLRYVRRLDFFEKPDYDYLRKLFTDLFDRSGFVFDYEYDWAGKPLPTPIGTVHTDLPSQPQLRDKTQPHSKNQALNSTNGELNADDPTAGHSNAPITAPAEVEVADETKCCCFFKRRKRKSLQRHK
Chain of UniProt P31152 (whole entry, looked up): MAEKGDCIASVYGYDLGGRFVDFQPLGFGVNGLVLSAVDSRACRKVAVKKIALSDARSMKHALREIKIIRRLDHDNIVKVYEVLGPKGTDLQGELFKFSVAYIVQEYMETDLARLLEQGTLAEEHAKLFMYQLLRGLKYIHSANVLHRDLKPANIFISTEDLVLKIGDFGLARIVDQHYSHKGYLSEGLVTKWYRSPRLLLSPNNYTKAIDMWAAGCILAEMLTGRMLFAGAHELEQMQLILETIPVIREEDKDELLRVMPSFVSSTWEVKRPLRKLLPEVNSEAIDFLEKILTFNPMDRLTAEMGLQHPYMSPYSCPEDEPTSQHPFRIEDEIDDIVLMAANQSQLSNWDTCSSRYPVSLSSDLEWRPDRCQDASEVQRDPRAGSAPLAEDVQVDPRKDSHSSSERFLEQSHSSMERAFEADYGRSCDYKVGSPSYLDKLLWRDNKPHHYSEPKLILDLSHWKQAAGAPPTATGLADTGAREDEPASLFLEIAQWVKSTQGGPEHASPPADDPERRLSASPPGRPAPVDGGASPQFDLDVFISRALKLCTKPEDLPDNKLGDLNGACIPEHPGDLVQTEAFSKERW
Chain of UniProt Q8IVW4 (whole entry, looked up): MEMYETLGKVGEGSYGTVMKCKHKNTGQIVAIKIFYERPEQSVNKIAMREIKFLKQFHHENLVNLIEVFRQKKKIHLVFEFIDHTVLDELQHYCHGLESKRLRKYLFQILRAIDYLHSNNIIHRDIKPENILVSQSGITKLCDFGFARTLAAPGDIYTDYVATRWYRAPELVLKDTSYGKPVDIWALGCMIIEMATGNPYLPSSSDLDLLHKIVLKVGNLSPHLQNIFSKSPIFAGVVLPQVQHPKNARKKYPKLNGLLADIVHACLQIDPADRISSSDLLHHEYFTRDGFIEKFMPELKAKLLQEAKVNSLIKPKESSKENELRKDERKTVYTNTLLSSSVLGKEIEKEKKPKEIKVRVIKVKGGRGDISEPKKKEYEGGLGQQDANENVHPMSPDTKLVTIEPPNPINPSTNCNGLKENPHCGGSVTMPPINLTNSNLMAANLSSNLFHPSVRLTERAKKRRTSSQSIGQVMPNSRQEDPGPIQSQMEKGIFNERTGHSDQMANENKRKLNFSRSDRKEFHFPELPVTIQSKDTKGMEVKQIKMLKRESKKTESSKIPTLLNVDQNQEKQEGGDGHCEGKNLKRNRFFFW

Set 1
Structure (SMILES): Cc1c(NC(=O)c2cc(C(N)=O)nc3cc(F)ccc23)c(C(F)(F)F)nn1Cc1ccc(C#N)cc1
Concentration: 1 µM
target	test	remaining binding
Casein kinase I isoform gamma-2 (CSNK1G2, Homo sapiens, UniProt P78368)	cell-free assay, competition with immobilised ligand	88%
Tyrosine-protein kinase ABL1, non-phosphorylated (ABL1, Homo sapiens, UniProt P00519, T315I)	cell-free assay, competition with immobilised ligand	100%
Beta-adrenergic receptor kinase 1 (GRK2, Homo sapiens, UniProt P25098)	cell-free assay, competition with immobilised ligand	87%
Mitogen-activated protein kinase 4 (MAPK4, Homo sapiens, UniProt P31152)	cell-free assay, competition with immobilised ligand	76%
Death-associated protein kinase 1 (DAPK1, Homo sapiens, UniProt P53355)	cell-free assay, competition with immobilised ligand	86%
Serine/threonine-protein kinase PRP4 homolog (PRPF4B, Homo sapiens, UniProt Q13523)	cell-free assay, competition with immobilised ligand	93%
Serine/threonine-protein kinase 17B (STK17B, Homo sapiens, UniProt O94768)	cell-free assay, competition with immobilised ligand	72%
Glycogen synthase kinase-3 alpha (GSK3A, Homo sapiens, UniProt P49840)	cell-free assay, competition with immobilised ligand	100%
Phosphatidylinositol 4-kinase beta (PI4KB, Homo sapiens, UniProt Q9UBF8)	cell-free assay, competition with immobilised ligand	77%
Angiopoietin-1 receptor (TEK, Homo sapiens, UniProt Q02763)	cell-free assay, competition with immobilised ligand	92%
Cyclin-dependent kinase-like 3 (CDKL3, Homo sapiens, UniProt Q8IVW4)	binding, competition with immobilised ligand	80%
Serine/threonine-protein kinase PLK3 (PLK3, Homo sapiens, UniProt Q9H4B4)	cell-free assay, competition with immobilised ligand	84%
Tyrosine-protein kinase ABL1, phosphorylated (ABL1, Homo sapiens, UniProt P00519, F317I)	binding	75%

Set 2
Cell line: A-375
Concentration: 100 µM
Time: 36 h
SMILES	viability
CCOC(=O)[N-]c1cn(N2CCOCC2)n[o+]1	81.4%
CN(C(=O)CN(CCO)CC(=O)N(C)C(C)(C)Cc1ccccc1)C(C)(C)Cc1ccccc1	-1.68%
O=C1C(O)=C([C@H]2CC[C@H](c3ccc(Cl)cc3)CC2)C(=O)c2ccccc21	17.1%

Set 3
Observed: AlphaScreen signal
Technique: AlphaScreen counter screen
Medium: His6 peptide without bromodomain
Concentration: 50 µM
Notes: assay interference check
SMILES	inhibition [%]
CCOC(=O)CC(=O)CSc1ccc2nnc(-c3ccc(OC)c(OC)c3)n2n1	10.4
Nc1nc(Nc2ccc(F)cc2)sc1C(=O)c1ccc(F)cc1	42.3
CC(=O)Nc1cccc(-n2c(=O)n(C3CC3)c(=O)c3c(Nc4ccc(I)cc4F)n(C)c(=O)c(C)c32)c1	23.3

Set 4
Target: Prothrombin, mature alpha-thrombin (F2, Homo sapiens, UniProt P00734)
Technique: aptamer microarray, sandwich
Molecule type: DNA with 2'F-ANA
Medium: in vitro
Concentration: 200 nM
Notes: whole 15-mer aptamer, many near background
Together with: Cy3 exosite-II aptamer, 400 nM
Direction: higher = stronger binding
Oligonucleotide: GGTTGGTGTGGTTGG
Modification	mean fluorescence intensity [a.u.]
2'F-ANA at 2 4 5 6 7 8 11	148
2'F-ANA at 2 3 6 7 8 9 10 12 13	366
2'F-ANA at 2 3 4 5 8 10 13 15	88.4
2'F-ANA at 2 3 5 6 8 11 12 13	147
2'F-ANA at 1 2 4 7 12 13	218
2'F-ANA at 2 3 4 5 7 8 10 12 13 14	47.3
2'F-ANA at 1 8 10 11 12 14 15	54.3
2'F-ANA at 3 4 6 11 12 13 14 15	261

Further values, each from its own experiment
Compound	tested on	test	system	setting	how to read	quantity	value
CC(=O)N[C@@H](Cc1c[nH]c2ccccc12)C(=O)N[C@@H](CCC(=O)C=[N+]=[N-])C(=O)OC(C)C			C57BL/6 CES1-/- mice, MC-38 tumour	dose not given, day 75 after inoculation, together with: anti-PD-1	baseline: initial	body weight	105% and 104%
O=[N+]([O-])OCC(CO[N+](=O)[O-])O[N+](=O)[O-]	Huh-7			10 µM, 24 h		viability	95.6%
CC(C)n1cnc(-c2ccc(F)cc2)c1-c1ncc(C(=O)Nc2ccc(N3CCN(C)CC3)cc2)[nH]1			human, idiopathic pulmonary fibrosis	30 mg once daily, trial, treatment-emergent		patients with hepatic steatosis	0%
C[N+](C)(C)CCCCCC[N+](C)(C)C	mouse MPNST tumor cells	high-content nuclear imaging, measured: cell number		10 µM, 12 h, mean of 2 replicates	baseline: plate mean, higher = more cells	nuclei count	0.651 z-score

Excerpt of the above (set 4):
Modification	mean fluorescence intensity [a.u.]
2'F-ANA at 1 2 4 7 12 13	218
2'F-ANA at 2 3 4 5 7 8 10 12 13 14	47.3
